Assay results pooled from the literature.
Parts stem from different laboratories: compare values within a part only. ± marks the error that the study gave.

Amino acid sequences for entries named in this document (tags omitted). Residues count along the entry.
UniProt O94788, 27-518 limits assumed: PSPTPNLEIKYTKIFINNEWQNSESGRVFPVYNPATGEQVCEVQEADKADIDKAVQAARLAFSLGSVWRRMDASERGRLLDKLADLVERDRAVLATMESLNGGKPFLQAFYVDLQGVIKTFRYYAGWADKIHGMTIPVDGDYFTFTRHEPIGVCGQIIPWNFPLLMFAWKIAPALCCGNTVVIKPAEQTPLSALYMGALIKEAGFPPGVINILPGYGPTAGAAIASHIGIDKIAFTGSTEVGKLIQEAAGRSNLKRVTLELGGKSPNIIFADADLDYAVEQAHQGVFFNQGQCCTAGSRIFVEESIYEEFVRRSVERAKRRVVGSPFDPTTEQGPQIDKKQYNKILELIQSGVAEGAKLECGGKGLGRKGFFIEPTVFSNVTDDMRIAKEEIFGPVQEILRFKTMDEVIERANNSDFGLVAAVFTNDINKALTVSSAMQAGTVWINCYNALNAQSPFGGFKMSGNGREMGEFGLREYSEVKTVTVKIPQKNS

Sample 1
Technique: chromatographic
pH: 7.4
SMILES	logD
CO[C@@H]1CNC[C@H](OCC2CCC(F)(F)CC2)[C@H]1Nc1ncc(-c2cncc(C)c2)c2cc(C)c(=O)[nH]c12	3.1
Cc1cncc(-c2ccc(N[C@@H]3CCNC[C@H]3OCC3CCS(=O)(=O)CC3)c3[nH]c(=O)c(C)cc23)c1	2.1
Cc1cc2c(-c3cncc(N)c3)cnc(N[C@@H]3CCNC[C@H]3OCC3CCS(=O)(=O)CC3)c2[nH]c1=O	0.4

Sample 2
Organism: Saccharomyces cerevisiae
Read-out: cell growth
Technique: doubling time
Strain: wild type
SMILES	IC50
O=C(c1ccc([N+](=O)[O-])cc1Cl)N1CCN(c2ccc(F)cc2)CC1	> 200 µM
O=C(c1cccc(Cl)c1)N1CCN(c2ccc(F)cc2)CC1	> 200 µM
COc1ccccc1N1CCN(C(=O)c2cc([N+](=O)[O-])ccc2Cl)CC1	> 200 µM
O=C(c1ccccc1Cl)N1CCN(c2ccc(F)cc2)CC1	> 200 µM
O=C(c1ccc(Cl)c([N+](=O)[O-])c1)N1CCN(Cc2ccccc2)CC1	> 200 µM

Single results of other studies
Compound	tested on	assay	test system	setting	scale	measurement	result
CCOc1ccsc1C(=O)N1CCN(c2ccc([N+](=O)[O-])c(N3CCCC3)c2)CC1	Retinal dehydrogenase 2 (ALDH1A2, Homo sapiens, UniProt O94788)	thermal stability, differential scanning fluorimetry	–	200 µM, together with: NAD 1 mM	–	ΔTm	8.8 ± 0.09 °C
CN(C)S(=O)(=O)c1ccc(NCCCCN2CCC(Nc3nc4ccccc4n3Cc3ccc(F)cc3)CC2)c2nonc12	–	–	hERG HEK293 membranes	–	baseline: buffer	emission blue shift	~5 nm
